Assay results from different studies.
Each numbered part is a random draw from the data of one study; scales do not carry over between parts.
Sequence of UniProt Q9H0K1 (whole entry, looked up): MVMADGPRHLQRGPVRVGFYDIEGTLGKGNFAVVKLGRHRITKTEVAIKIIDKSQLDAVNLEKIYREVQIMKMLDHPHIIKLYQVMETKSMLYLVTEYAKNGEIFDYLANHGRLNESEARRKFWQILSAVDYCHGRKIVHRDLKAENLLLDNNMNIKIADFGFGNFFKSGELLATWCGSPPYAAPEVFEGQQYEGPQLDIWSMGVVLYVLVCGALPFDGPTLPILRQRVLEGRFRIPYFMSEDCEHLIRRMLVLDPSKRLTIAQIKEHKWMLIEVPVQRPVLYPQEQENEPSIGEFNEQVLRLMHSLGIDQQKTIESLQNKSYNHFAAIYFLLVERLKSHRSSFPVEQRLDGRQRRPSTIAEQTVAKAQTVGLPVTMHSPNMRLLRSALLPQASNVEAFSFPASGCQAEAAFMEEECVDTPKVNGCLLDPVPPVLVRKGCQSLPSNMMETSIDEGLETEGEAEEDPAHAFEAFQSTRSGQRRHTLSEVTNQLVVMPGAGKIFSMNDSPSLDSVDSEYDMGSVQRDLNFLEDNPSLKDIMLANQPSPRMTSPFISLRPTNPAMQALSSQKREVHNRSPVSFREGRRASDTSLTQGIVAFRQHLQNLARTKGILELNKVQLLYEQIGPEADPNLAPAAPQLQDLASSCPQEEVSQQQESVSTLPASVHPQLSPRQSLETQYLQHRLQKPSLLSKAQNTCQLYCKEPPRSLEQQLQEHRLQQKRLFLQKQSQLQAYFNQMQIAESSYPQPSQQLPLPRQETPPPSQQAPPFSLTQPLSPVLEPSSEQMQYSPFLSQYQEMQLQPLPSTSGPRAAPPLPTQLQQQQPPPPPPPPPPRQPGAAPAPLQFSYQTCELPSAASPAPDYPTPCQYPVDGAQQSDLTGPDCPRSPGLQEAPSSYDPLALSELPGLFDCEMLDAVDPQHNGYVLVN
Sequence of UniProt P00519 (whole entry, unmodified, looked up): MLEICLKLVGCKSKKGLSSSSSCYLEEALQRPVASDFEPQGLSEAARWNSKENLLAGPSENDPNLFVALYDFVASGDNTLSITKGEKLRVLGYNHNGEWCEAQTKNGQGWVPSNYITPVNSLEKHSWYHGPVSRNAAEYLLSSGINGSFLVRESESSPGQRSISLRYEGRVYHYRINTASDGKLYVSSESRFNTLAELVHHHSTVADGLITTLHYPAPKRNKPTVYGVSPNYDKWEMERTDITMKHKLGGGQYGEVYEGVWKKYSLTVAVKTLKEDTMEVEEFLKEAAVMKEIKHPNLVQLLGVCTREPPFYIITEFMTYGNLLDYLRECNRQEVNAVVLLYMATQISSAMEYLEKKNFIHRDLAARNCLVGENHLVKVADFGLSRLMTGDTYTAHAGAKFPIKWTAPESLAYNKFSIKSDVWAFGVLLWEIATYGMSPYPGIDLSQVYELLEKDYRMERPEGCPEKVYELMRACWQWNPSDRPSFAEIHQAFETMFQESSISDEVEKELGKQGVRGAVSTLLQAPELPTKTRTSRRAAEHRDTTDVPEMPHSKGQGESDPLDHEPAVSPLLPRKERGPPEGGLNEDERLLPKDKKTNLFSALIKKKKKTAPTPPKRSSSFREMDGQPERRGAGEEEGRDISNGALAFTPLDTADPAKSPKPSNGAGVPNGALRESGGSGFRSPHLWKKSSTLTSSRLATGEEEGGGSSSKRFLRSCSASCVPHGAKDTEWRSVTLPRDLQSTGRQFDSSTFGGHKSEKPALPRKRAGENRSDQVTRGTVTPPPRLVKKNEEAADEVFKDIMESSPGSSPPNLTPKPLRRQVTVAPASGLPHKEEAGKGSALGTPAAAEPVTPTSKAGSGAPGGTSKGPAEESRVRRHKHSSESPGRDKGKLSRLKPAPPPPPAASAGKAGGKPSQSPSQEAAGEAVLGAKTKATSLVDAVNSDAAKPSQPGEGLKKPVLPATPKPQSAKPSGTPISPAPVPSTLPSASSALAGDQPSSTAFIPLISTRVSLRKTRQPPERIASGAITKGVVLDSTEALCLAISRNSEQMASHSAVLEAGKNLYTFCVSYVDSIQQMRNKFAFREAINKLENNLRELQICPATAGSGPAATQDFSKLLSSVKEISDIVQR
Sequence of UniProt Q14012 (whole entry, looked up): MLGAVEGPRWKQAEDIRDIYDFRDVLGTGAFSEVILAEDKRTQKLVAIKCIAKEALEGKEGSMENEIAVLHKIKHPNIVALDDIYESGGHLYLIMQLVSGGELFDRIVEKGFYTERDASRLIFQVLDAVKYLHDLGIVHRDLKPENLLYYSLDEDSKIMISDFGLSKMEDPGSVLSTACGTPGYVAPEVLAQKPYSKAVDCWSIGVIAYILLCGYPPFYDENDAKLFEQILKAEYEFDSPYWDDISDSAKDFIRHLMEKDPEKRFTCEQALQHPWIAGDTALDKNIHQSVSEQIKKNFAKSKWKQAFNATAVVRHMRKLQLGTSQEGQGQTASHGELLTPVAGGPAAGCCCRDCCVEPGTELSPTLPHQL
Sequence of UniProt P49759 (whole entry, looked up): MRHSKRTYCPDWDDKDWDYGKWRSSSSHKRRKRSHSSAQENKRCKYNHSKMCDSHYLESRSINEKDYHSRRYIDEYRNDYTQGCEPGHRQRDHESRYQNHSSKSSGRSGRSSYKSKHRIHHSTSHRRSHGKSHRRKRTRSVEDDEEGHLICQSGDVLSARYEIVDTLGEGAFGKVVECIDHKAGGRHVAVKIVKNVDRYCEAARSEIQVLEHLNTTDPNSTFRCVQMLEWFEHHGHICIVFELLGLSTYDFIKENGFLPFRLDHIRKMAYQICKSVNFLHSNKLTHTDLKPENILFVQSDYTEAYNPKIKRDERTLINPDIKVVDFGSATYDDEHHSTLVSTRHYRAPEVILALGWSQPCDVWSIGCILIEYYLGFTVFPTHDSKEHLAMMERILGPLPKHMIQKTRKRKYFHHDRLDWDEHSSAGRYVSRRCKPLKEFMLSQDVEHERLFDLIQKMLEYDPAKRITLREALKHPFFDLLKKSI
Sequence of UniProt O00141 (whole entry, looked up): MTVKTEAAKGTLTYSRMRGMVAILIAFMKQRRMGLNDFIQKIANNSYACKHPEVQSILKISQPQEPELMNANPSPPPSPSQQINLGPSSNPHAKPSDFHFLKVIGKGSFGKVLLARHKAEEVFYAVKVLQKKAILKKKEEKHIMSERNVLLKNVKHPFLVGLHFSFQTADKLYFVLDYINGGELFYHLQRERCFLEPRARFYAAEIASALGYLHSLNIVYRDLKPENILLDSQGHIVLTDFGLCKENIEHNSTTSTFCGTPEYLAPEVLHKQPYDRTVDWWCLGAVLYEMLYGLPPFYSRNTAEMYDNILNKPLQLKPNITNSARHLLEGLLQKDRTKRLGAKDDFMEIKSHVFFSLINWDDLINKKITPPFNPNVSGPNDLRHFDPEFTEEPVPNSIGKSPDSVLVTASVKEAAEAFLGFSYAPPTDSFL
Sequence of UniProt Q9NYL2 (whole entry, looked up): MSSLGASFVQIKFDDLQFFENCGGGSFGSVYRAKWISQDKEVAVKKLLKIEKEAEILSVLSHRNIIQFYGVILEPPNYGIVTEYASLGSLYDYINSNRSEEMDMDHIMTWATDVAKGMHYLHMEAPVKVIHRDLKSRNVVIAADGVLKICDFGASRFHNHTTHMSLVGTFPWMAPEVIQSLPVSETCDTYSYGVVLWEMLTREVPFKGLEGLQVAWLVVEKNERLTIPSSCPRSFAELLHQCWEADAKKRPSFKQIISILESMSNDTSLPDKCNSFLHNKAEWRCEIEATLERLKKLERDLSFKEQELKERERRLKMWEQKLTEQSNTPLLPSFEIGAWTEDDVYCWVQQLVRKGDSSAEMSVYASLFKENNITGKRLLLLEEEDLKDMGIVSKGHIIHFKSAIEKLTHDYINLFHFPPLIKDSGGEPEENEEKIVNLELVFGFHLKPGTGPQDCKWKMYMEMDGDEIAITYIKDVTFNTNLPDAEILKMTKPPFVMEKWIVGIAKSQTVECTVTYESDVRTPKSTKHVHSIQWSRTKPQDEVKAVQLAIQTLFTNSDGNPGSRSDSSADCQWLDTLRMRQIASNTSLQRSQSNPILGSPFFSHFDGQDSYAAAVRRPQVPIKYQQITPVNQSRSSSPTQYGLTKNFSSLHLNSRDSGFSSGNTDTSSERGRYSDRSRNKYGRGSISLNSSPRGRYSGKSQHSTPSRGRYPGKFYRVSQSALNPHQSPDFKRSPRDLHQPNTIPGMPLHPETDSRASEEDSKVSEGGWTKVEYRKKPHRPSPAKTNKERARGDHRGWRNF
Sequence of UniProt Q9BYT3 (whole entry, looked up): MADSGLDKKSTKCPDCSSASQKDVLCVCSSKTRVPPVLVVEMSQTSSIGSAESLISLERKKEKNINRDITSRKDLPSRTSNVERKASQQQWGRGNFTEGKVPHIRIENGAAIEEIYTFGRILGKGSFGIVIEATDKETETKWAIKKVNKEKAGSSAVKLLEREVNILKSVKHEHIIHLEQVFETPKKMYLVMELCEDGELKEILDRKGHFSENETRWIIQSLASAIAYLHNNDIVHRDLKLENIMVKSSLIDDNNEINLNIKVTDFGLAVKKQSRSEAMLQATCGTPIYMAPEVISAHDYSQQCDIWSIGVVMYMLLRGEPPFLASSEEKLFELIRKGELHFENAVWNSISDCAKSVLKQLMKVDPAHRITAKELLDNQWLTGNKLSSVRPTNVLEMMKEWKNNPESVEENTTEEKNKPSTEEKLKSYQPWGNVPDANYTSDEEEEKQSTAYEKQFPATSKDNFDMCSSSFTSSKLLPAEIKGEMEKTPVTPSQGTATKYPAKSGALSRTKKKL
Sequence of UniProt Q96PN8 (whole entry, looked up): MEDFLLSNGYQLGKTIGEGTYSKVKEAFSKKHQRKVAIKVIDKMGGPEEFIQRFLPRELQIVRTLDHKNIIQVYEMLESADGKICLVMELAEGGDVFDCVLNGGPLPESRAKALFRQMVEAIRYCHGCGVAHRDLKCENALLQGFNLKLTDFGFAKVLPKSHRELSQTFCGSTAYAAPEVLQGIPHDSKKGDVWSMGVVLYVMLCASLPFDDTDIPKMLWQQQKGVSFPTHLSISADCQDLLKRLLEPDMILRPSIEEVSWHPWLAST

Sample 1
Species: human
Matrix: microsomes or S9
Tested at: 2 µM
Time: 0.5 h
The remaining compound of `CCOC(=O)C1=C(c2ccccc2)c2cc3c(cc2C1=O)OCO3` is reported as 8.94%.
`O=C(Nc1n[nH]c(Cc2ccc(F)cc2)n1)c1ccn2nnnc2c1` has a remaining compound of 31.1%.
The remaining compound of `COc1ccc(-c2cn3c4ccccc4nc3n2CCN2CCN(C)CC2)cc1` is reported as 58.4%.
With `CC(=O)c1cc(CN2CCOCC2CC(=O)NCCc2ncnn2C)cs1` (stereo not shown) the remaining compound was 89.2%.
With `CCc1cnc(N2CCC(Oc3cc(=O)n(-c4ccc(OC)nc4)c(=O)n3C)CC2)nc1` the remaining compound was > 100%.
`Brc1cc(-c2noc([C@H]3CCCO3)n2)c2ncnn2c1` has a remaining compound of 35.9%.
`CC(=O)NCCOc1c(C)cc(S(N)(=O)=O)cc1C` gave a remaining compound of 71.4%.
For `CON(C)c1nc(OCCNC(=O)OCc2ccc(Cl)cc2C)nc(N(C)C)n1`, the remaining compound was 0.504%.
`COCCN1N=C(C)Cn2c1nc1c2c(=O)n(Cc2ccccc2Cl)c(=O)n1C` gave a remaining compound of 82.8%.
The remaining compound of `Cc1cn2c(CNc3ncnc4c3cnn4C)c(C)nc2s1` is reported as > 100%.
The remaining compound of `CN(C(=O)CN1CCC(NC(=O)C2CCCCC2)CC1)C1CCCCC1` is reported as 5.21%.
`O=S(=O)(/C(=C(\c1ccccc1)n1ccnc1)c1ccccc1)c1ccccc1` gave a remaining compound of 8.23%.

Sample 2
Cell line: HaCaT
Tested at: 100 µM
Time: 18 h
`NCCCNCCSP(=O)(O)O` has a viability of 112%.
For `O=C1c2cccc(O)c2C(=O)c2c(O)cc(CO)cc21`, the viability was 88.9%.
With `Cc1nc(C)c(C)nc1C` the viability was 107%.
`CC(=O)O[C@H]1C(=O)[C@@]2(C)[C@H]([C@H](OC(=O)c3ccccc3)[C@]3(O)C[C@H](OC(=O)[C@H](O)[C@@H](NC(=O)c4ccccc4)c4ccccc4)C(C)=C1C3(C)C)[C@]1(OC(C)=O)CO[C@@H]1C[C@@H]2O` has a viability of 72.4%.
With `CCCCCCCCCCCCCCCCOc1nc2ccc(C)cc2c(=O)o1` the viability was 115%.
For `CN1CC(=O)N2[C@H](c3ccc4c(c3)OCO4)c3[nH]c4ccccc4c3C[C@@H]2C1=O`, the viability was 97.1%.
`CC(=O)OCC(=O)[C@@]1(O)CC[C@H]2[C@@H]3CCC4=CC(=O)CC[C@]4(C)[C@H]3C(=O)C[C@@]21C` has a viability of 111%.
The viability of `COC(=O)/C=C/C(=O)OC` is reported as 108%.
`CCCCCCNC(=O)n1cc(F)c(=O)[nH]c1=O` has a viability of 83.4%.
For `CCC(=O)OCC(=O)[C@@]1(OC(=O)CC)[C@@H](C)C[C@H]2[C@@H]3CCC4=CC(=O)C=C[C@]4(C)[C@@]3(Cl)[C@@H](O)C[C@@]21C`, the viability was 70.6%.
`O=C(c1ccc(OCCN2CCCCC2)cc1)c1c(-c2ccc(O)cc2)sc2cc(O)ccc12` has a viability of 16.3%.
`CN(C)CCCN1c2ccccc2Sc2ccccc21` gave a viability of 33.7%.

Sample 3
SMILES: Cc1nc(N2CC[C@@H](O)C2)ncc1-c1cc(C(F)(F)F)cc2[nH]ncc12
Technique: competition with immobilised ligand
Tested at: 1 µM
The remaining binding was 54% (FLT3 (Homo sapiens, UniProt P36888, D835V/ITD); binding).
PIK3CG (Homo sapiens, UniProt P48736); cell-free assay — remaining binding: 82%.
It gave 42% for remaining binding (GRK2 (Homo sapiens, UniProt P25098); binding).
The remaining binding was 100% (STK33 (Homo sapiens, UniProt Q9BYT3); binding).
It gave 82% for remaining binding (MAP3K3 (Homo sapiens, UniProt Q99759); binding).
It gave 100% for remaining binding (EPHB4 (Homo sapiens, UniProt P54760); cell-free assay).
For WNK3 (Homo sapiens, UniProt Q9BYP7); binding: remaining binding read 67%.
PLK3 (Homo sapiens, UniProt Q9H4B4); binding — remaining binding: 78%.
For TSSK3 (Homo sapiens, UniProt Q96PN8); binding: remaining binding read 100%.
It gave 100% for remaining binding (PHKG2 (Homo sapiens, UniProt P15735); cell-free assay).
The remaining binding was 91% (TIE1 (Homo sapiens, UniProt P35590); cell-free assay).
For MKNK2 (Homo sapiens, UniProt Q9HBH9); binding: remaining binding read 76%.
EGFR (Homo sapiens, UniProt P00533); cell-free assay — remaining binding: 71%.
It gave 61% for remaining binding (MKNK1 (Homo sapiens, UniProt Q9BUB5); binding).
MARK1 (Homo sapiens, UniProt Q9P0L2); binding — remaining binding: 74%.
SGK1 (Homo sapiens, UniProt O00141); binding — remaining binding: 49%.
PLK1 (Homo sapiens, UniProt P53350); binding — remaining binding: 64%.
It gave 60% for remaining binding (NEK3 (Homo sapiens, UniProt P51956); binding).
It gave 100% for remaining binding (RIPK1 (Homo sapiens, UniProt Q13546); binding).
For PIK3CA (Homo sapiens, UniProt P42336); cell-free assay: remaining binding read 100%.
For Tyrosine-protein kinase ABL1, non-phosphorylated (ABL1, Homo sapiens, UniProt P00519, F317L); binding: remaining binding read 100%.
The remaining binding was 72% (PAK3 (Homo sapiens, UniProt O75914); cell-free assay).
SIK2 (Homo sapiens, UniProt Q9H0K1); binding — remaining binding: 100%.
FGFR3 (Homo sapiens, UniProt P22607, G697C); cell-free assay — remaining binding: 90%.
The remaining binding was 100% (MARK3 (Homo sapiens, UniProt P27448); binding).

Sample 4
Structure (SMILES): CSc1nc(-c2ccnc(N[C@@H](C)c3ccccc3)c2)c(-c2ccc(F)cc2)[nH]1 (racemic)
Observed: enzyme activity
Action: inhibitor
Tested at: 0.5 µM
Relative to: control
It gave 97.7% for remaining activity (PAK1 (Homo sapiens, UniProt Q13153)).
For TEC (Homo sapiens, UniProt P42680): remaining activity read 120%.
For CLK2 (Homo sapiens, UniProt P49760): remaining activity read 102%.
The remaining activity was 72% (CSNK1E (Homo sapiens, UniProt P49674)).
The remaining activity was 98.8% (EPHA2 (Homo sapiens, UniProt P29317)).
The remaining activity was 104% (JAK1 (Homo sapiens, UniProt P23458)).
TYRO3 (Homo sapiens, UniProt Q06418) — remaining activity: 108%.
The remaining activity was 96.1% (SGK2 (Homo sapiens, UniProt Q9HBY8)).
It gave 91% for remaining activity (RPS6KA3 (Homo sapiens, UniProt P51812)).
FLT1 (Homo sapiens, UniProt P17948) — remaining activity: 71.5%.
PRKCQ (Homo sapiens, UniProt Q04759) — remaining activity: 111%.
The remaining activity was 101% (MUSK (Homo sapiens, UniProt O15146)).
For CAMK1 (Homo sapiens, UniProt Q14012): remaining activity read 96.2%.
It gave 96.8% for remaining activity (CLK1 (Homo sapiens, UniProt P49759)).
The remaining activity was 101% (IGF1R (Homo sapiens, UniProt P08069)).
The remaining activity was 88% (Cyclin-dependent kinase 2, with cyclin E (CDK2, Homo sapiens, UniProt P24941)).
The remaining activity was 75.8% (EPHA6 (Homo sapiens, UniProt Q9UF33)).
It gave 85.7% for remaining activity (MAP3K20 (Homo sapiens, UniProt Q9NYL2)).
It gave 41.9% for remaining activity (CSNK1D (Homo sapiens, UniProt P48730)).
PRKCZ (Homo sapiens, UniProt Q05513) — remaining activity: 111%.
CAMKK1 (Homo sapiens, UniProt Q8N5S9) — remaining activity: 104%.
For PAK6 (Homo sapiens, UniProt Q9NQU5): remaining activity read 93.5%.
For SRPK1 (Homo sapiens, UniProt Q96SB4): remaining activity read 106%.
For SIK2 (Homo sapiens, UniProt Q9H0K1): remaining activity read 97.2%.

A few entries again (sample 2):
For `O=C1c2cccc(O)c2C(=O)c2c(O)cc(CO)cc21`, the viability was 88.9%.
With `Cc1nc(C)c(C)nc1C` the viability was 107%.
`CC(=O)O[C@H]1C(=O)[C@@]2(C)[C@H]([C@H](OC(=O)c3ccccc3)[C@]3(O)C[C@H](OC(=O)[C@H](O)[C@@H](NC(=O)c4ccccc4)c4ccccc4)C(C)=C1C3(C)C)[C@]1(OC(C)=O)CO[C@@H]1C[C@@H]2O` has a viability of 72.4%.
With `CCCCCCCCCCCCCCCCOc1nc2ccc(C)cc2c(=O)o1` the viability was 115%.
For `CN1CC(=O)N2[C@H](c3ccc4c(c3)OCO4)c3[nH]c4ccccc4c3C[C@@H]2C1=O`, the viability was 97.1%.
`CC(=O)OCC(=O)[C@@]1(O)CC[C@H]2[C@@H]3CCC4=CC(=O)CC[C@]4(C)[C@H]3C(=O)C[C@@]21C` has a viability of 111%.
